Results pooled from the literature.
Lines come from different studies, so protocols differ. ± marks the error that the study gave.
Chain of UniProt P08684 (whole entry, unmodified, looked up): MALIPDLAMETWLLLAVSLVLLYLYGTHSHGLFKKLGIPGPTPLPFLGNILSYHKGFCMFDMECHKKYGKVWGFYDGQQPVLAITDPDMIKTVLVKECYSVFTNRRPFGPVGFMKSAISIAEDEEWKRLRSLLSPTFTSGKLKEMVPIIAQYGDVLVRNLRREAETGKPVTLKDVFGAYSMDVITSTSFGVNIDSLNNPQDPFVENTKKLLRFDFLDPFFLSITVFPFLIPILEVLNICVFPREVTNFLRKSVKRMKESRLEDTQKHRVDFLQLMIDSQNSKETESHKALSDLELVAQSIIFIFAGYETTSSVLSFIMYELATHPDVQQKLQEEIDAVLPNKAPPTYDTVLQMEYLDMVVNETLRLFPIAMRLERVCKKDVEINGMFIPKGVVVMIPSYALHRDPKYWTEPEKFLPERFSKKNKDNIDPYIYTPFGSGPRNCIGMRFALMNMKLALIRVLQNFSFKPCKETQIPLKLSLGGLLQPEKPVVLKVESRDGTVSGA
Chain of UniProt P22309 (whole entry, looked up): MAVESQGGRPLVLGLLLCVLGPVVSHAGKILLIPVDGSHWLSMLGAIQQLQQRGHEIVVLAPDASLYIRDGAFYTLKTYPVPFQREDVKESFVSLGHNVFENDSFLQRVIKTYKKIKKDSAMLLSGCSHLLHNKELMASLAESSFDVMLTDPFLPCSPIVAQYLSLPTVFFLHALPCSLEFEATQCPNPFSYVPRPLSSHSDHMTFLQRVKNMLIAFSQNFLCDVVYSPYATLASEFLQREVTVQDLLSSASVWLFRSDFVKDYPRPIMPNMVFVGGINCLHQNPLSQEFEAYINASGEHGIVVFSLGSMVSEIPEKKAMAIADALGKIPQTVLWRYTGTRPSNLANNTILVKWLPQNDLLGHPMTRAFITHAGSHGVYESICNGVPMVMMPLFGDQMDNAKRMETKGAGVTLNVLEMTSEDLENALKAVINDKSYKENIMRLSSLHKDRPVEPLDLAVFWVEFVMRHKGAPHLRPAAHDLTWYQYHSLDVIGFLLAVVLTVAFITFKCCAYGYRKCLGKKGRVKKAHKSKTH
Chain of UniProt Q6P179 (whole entry, looked up): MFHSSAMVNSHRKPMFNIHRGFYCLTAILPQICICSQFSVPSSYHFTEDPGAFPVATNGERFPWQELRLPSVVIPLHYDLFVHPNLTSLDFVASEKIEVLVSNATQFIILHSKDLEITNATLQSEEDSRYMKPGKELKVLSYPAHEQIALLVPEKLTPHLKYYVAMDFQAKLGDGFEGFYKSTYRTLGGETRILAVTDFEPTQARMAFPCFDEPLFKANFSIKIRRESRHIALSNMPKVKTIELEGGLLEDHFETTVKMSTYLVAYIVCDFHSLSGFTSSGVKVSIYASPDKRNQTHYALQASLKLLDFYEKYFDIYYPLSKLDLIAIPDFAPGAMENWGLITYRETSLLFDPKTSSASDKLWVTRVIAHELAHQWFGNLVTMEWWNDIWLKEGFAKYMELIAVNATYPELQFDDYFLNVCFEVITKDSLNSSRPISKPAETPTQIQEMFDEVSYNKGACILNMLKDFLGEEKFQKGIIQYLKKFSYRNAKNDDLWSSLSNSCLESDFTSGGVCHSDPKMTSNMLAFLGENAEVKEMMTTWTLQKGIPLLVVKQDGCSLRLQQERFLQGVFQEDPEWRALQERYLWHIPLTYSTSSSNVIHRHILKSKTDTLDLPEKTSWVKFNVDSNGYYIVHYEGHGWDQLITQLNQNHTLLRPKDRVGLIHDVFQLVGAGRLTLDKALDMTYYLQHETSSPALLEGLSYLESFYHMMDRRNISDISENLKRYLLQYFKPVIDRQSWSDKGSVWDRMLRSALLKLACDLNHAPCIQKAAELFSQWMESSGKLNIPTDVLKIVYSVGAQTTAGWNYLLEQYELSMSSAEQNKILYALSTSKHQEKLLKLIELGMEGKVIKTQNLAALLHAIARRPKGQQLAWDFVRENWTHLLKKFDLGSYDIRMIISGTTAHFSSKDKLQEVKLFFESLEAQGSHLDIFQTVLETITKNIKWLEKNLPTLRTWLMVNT

Structure (SMILES) | target | assay | test system | setting | scale | quantity | result
[64Cu+2].c1cnc(CNCc2ccc(CN3CCCN4CCNCCCN(CC4)CC3)cc2)nc1 | CXCR4 (human) | – | NOD/SCID mice, U87 xenografts, small intestine | 450 min post-injection | – | tissue uptake | 3.98 ± 0.34 %ID/g
O=C([O-])c1cccc(CN2CCNCCNCC2)n1.[Cu+2] | copper(II/I) couple | cyclic voltammetry | – | pH 5 | – | peak separation | 64 mV
COc1cccc2c1C(=O)c1c(O)c3c(c(O)c1C2=O)CC(O)(C(=O)CO)CC3OC1CC(NC(=O)C[C@H](N)C(=O)O)C(O)C(C)O1 (stereo partly drawn) | P-glycoprotein (MDR1) | – | MDCK-MDR1 | 50 µg/mL, 60 min | baseline: Papp(B-A) over Papp(A-B) | efflux ratio | 1.3 ± 0.11
COc1ccc(/C=C/c2ccc(-c3ccc(C)cn3)nc2)cc1 | zinc(II) | – | neutral aqueous solution | zinc saturation | baseline: zinc-free ligand, positive = red shift | emission wavelength shift | 53 nm
O=c1c(/C=N/NC(=S)N/N=C/c2cc(Cl)ccc2O)coc2ccccc12 | Mn2+ complex | potentiometric titration | – | 25 °C | – | log stability constant | 16.3
O=C(O)[C@@H]1C[C@@H](O)CN1C(=O)[C@@H]1CCCN1 | iron(III) ion | complex formation, from log β | aqueous 0.15 M NaCl | 25 °C, MAH−2 complex species | – | −ΔG | 0.02 kJ/mol
NC(=O)N/N=C/c1ccccn1 | Mn2+ complex | potentiometric titration | – | 25 °C | – | log stability constant | 16.1
C=CC(=O)Nc1cc(Nc2nccc(-c3cn(C)c4ccccc34)n2)c(OCC(F)(F)F)nc1N(C)CCN(C)C | Cytochrome P450 3A4 (CYP3A4, Homo sapiens, UniProt P08684) | enzyme activity, inhibitor | human, liver microsomes | 1 µM, testosterone probe | – | activity vs control | 101%
O=c1c(/C=N/NC(=S)N/N=C/c2ccccn2)coc2ccccc12 | Cu2+ complex | potentiometric titration | – | 25 °C | – | log stability constant | 19.5
O=C(C[C@H](Cc1ccc(O)cc1)n1cc(CNS(=O)(=O)c2ccc(-c3ccccc3)s2)nn1)NO | ERAP2 (Homo sapiens, UniProt Q6P179) | inhibitor | – | – | – | lipophilic ligand efficiency | 2.4
N#CCc1cccc(Cl)c1-c1ccc2[nH][11c](=O)[nH]c2c1 | P-glycoprotein and Bcrp | ex vivo brain uptake | mouse | injection, 30 min, added: tariquidar and Ko143 | baseline: without inhibitors | brain uptake increase | 282%
COc1ccc2cc(NC(=O)c3cc(-c4ccncc4)nc4ccccc34)ccc2c1 | Cytochrome P450 3A4 (CYP3A4, Homo sapiens, UniProt P08684, S18F) | binding, surface plasmon resonance | – | 10 °C | – | koff slow phase | 0.006 s⁻¹
CNC(=S)N/N=C/c1ccccn1 | Mn2+ complex | potentiometric titration | – | 25 °C | – | log stability constant | 15.9
O=C([O-])CN1CCN(CC(=O)[O-])CCN(Cc2cccc(C(=O)[O-])n2)CC1.[Cu+2] | copper(II/I) couple | cyclic voltammetry | – | pH 5 | – | peak separation | 103 mV
O=c1c(/C=N/NC(=S)N/N=C/c2ccccc2O)coc2ccccc12 | Mn2+ complex | potentiometric titration | – | 25 °C | – | log stability constant | 16.2
O=C(O)[C@H]1O[C@@H](O[C@H]2C=Cc3c(cc4ccc5cccc6c7ccccc7c3c4c56)[C@@H]2O)[C@H](O)[C@@H](O)[C@@H]1O | UGT1A1 (Homo sapiens, UniProt P22309) | substrate | – | – | – | Km | 78 ± 19 µM
NC(=S)N/N=C/c1ccccc1O | Cu2+ complex | potentiometric titration | – | 25 °C | – | log stability constant | 18
[64Cu+2].c1ccc(CNCc2ccc(CN3CCCN4CCNCCCN(CC4)CC3)cc2)nc1 | CXCR4 | – | NOD/SCID mouse, U87 and U87-stb-CXCR4 xenografts, liver | iv, 240 min, ex vivo | – | tissue uptake | 101 ± 8.94 %ID/g

For quick reference, copied from above:
Structure (SMILES) | target | assay | test system | setting | scale | quantity | result
O=C([O-])c1cccc(CN2CCNCCNCC2)n1.[Cu+2] | copper(II/I) couple | cyclic voltammetry | – | pH 5 | – | peak separation | 64 mV
COc1cccc2c1C(=O)c1c(O)c3c(c(O)c1C2=O)CC(O)(C(=O)CO)CC3OC1CC(NC(=O)C[C@H](N)C(=O)O)C(O)C(C)O1 (stereo partly drawn) | P-glycoprotein (MDR1) | – | MDCK-MDR1 | 50 µg/mL, 60 min | baseline: Papp(B-A) over Papp(A-B) | efflux ratio | 1.3 ± 0.11
